Assay results of several laboratories.
Protocols differ between the studies behind these lines. Numbers after ± are the reported error.
FPR1: fMet-Leu-Phe receptor (FPR1, Homo sapiens, UniProt P21462)
GRPR: Gastrin-releasing peptide receptor (GRPR, Homo sapiens, UniProt P30550)
UniProt P30550, sequence (whole entry, looked up): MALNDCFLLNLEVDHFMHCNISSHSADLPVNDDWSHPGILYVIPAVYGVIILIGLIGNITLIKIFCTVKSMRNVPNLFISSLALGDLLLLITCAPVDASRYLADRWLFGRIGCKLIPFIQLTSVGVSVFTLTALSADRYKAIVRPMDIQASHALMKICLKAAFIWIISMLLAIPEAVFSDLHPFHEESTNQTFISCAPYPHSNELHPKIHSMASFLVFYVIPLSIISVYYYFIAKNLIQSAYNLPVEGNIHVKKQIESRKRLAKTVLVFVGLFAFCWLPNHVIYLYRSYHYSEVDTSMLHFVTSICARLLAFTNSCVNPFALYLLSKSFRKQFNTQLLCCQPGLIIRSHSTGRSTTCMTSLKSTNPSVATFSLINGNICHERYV
Mc1r: Melanocyte-stimulating hormone receptor (Mc1r, Mus musculus, UniProt Q01727)
UniProt Q01727, sequence (whole entry, looked up): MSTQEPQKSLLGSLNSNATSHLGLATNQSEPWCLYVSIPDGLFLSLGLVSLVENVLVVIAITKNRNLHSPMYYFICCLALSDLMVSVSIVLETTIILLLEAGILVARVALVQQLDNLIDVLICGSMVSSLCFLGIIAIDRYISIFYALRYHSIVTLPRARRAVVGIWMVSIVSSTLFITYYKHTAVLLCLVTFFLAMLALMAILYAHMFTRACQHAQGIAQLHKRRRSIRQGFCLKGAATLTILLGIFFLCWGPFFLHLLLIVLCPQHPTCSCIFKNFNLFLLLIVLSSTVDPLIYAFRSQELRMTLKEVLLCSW
UniProt P20309, sequence (whole entry, unmodified, looked up): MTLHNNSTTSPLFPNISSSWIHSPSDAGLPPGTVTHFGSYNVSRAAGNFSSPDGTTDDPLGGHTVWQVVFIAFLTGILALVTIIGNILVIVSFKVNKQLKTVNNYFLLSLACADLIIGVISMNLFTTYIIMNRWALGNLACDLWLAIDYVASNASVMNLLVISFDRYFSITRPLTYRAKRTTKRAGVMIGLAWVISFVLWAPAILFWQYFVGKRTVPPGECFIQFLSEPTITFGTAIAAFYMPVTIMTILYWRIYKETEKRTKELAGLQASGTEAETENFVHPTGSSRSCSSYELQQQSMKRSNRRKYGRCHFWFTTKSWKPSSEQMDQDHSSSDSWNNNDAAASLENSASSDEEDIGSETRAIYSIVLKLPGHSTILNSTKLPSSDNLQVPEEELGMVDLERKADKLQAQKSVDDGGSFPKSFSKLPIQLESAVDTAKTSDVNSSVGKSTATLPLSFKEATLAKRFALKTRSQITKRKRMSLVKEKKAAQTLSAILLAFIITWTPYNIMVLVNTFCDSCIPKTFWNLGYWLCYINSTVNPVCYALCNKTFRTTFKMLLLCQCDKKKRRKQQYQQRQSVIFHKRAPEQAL
UniProt O95665, sequence (whole entry, looked up): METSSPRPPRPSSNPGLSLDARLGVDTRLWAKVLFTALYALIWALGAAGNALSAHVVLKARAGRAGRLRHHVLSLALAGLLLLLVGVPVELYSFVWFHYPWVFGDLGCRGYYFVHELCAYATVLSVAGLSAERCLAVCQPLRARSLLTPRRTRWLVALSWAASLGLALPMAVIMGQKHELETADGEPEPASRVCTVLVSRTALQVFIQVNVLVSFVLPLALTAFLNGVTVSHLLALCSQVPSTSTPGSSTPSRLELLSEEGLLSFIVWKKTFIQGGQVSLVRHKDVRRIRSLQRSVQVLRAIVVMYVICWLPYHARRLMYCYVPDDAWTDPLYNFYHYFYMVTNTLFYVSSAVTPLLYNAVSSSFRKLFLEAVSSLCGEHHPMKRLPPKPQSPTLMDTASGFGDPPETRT
UniProt Q96RJ0, sequence (whole entry, looked up): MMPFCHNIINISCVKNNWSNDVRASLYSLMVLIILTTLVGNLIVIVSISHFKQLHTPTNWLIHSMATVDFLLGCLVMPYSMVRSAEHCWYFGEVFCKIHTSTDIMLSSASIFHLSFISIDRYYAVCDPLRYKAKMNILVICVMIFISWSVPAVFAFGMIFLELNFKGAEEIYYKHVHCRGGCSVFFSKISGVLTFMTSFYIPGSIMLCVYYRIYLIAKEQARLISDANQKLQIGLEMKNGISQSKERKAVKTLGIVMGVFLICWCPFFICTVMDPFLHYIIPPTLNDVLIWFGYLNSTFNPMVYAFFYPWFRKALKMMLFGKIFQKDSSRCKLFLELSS
UniProt P21452, sequence (whole entry, looked up): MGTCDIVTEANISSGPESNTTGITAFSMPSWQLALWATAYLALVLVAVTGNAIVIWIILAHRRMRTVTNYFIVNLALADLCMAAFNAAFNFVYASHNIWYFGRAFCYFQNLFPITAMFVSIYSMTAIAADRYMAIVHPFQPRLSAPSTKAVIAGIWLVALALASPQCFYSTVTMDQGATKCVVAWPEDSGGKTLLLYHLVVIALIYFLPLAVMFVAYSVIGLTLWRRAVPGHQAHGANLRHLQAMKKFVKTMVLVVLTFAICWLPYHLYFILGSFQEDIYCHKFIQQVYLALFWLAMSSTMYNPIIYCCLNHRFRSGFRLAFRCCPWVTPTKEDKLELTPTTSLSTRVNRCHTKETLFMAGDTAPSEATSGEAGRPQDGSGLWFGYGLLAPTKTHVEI
UniProt P05804, sequence (whole entry, looked up): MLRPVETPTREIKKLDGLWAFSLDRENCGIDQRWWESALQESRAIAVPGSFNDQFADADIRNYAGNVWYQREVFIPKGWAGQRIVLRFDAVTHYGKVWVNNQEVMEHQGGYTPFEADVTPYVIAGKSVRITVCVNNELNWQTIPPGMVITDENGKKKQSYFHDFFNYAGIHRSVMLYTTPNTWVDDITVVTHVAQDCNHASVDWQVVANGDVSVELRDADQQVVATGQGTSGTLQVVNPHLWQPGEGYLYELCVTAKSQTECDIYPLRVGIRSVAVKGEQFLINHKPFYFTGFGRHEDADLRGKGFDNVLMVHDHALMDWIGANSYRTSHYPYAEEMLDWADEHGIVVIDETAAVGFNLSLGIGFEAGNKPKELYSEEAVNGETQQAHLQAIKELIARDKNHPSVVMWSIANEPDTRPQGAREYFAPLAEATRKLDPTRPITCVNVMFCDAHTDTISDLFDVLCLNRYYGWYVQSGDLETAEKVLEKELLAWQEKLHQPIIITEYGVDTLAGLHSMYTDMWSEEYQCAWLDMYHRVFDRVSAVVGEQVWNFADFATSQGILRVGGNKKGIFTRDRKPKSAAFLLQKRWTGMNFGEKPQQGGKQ
UniProt Q9NYW4, sequence (whole entry, looked up): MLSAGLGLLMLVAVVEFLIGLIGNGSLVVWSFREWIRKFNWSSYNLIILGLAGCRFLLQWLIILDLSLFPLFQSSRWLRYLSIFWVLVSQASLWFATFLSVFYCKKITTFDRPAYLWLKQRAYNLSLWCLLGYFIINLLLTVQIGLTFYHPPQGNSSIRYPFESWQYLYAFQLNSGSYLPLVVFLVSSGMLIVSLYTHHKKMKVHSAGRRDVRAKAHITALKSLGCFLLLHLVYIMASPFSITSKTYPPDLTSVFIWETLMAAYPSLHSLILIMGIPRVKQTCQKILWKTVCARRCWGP
UniProt P50391, sequence (whole entry, looked up): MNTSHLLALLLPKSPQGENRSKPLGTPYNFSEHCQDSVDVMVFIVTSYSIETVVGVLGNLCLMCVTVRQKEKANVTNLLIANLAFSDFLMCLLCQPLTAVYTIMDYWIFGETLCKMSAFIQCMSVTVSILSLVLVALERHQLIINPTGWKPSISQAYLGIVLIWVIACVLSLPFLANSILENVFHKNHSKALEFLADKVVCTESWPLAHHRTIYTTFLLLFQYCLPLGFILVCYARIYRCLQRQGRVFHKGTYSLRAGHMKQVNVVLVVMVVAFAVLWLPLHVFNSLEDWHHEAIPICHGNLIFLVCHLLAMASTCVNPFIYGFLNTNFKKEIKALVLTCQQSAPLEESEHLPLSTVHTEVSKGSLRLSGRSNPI
UniProt P11229, sequence (whole entry, looked up): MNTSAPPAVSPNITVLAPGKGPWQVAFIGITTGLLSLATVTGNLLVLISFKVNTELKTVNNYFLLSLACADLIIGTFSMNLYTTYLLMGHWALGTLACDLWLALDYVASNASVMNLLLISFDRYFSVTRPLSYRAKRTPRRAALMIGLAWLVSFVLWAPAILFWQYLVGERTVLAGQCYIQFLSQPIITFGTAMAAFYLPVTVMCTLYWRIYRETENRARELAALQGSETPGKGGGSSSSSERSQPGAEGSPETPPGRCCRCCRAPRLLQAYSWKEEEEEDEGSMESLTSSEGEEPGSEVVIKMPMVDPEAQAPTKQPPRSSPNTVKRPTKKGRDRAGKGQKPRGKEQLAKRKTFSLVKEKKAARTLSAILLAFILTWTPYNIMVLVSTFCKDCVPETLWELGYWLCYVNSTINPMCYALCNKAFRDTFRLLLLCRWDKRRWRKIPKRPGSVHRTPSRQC

SMILES | target | test | test system | conditions | EC50 [µM]
CSCC[C@H](NC=O)C(=O)N[C@@H](Cc1ccccc1)C(=O)N[C@H](C(=O)N[C@@H](Cc1ccccc1)C(=O)N[C@@H](CCC(=O)O)C(=O)N1CCC[C@H]1C(=O)N[C@@H](Cc1ccccc1)C(=O)N1CCC[C@H]1C(=O)N[C@H](C(=O)N[C@@H](CC(N)=O)C(=O)O)[C@@H](C)O)[C@@H](C)O | FPR1 | receptor surface downregulation, agonist | CHO cells | 1 h, 37 °C | 0.0068 ± 0.1
c1cnc2c(c1)c1nccnc1c1cccnc12 | TAS2R5 (Homo sapiens, UniProt Q9NYW4) | calcium signal, agonist, fluorescence | – | – | 78.4
CNc1nc2sc3c(N4CCNCC4)nnnc3c2c2c1CCCC2 | Beta-glucuronidase (uidA, Escherichia coli, UniProt P05804) | enzyme activity, inhibitor, in-cell | K12 MG1655 | 24 h | 0.006
CSCC[C@H](NC(=O)[C@H](CC(C)C)NC(=O)[C@H](Cc1cnc[nH]1)NC(=O)CNC(=O)[C@@H](NC(=O)[C@H](C)NC(=O)[C@H](Cc1c[nH]c2ccccc12)NC(=O)[C@H](CCC(N)=O)NC(=O)[C@H](N)Cc1ccccc1)C(C)C)C(N)=O | GRPR | inositol phosphate, agonist | – | – | 0.00154
CCCC[C@H](NC=O)C(=O)N[C@@H](CCCC)C(=O)N[C@@H](Cc1c[nH]c2ccccc12)C(=O)N[C@@H](CCC(=O)O)C(=O)N[C@@H](CC(=O)O)C(=O)N[C@@H](Cc1c[nH]c2ccccc12)C(=O)N[C@H](C(=O)NCC(=O)N[C@@H](Cc1c[nH]c2ccccc12)C(=O)N[C@H](C(=O)O)[C@@H](C)CC)C(C)C | FPR1 | receptor surface downregulation, agonist | CHO cells | 1 h, 37 °C | 0.06 ± 0.008
NCCc1ccccc1 | TAAR1 (Homo sapiens, UniProt Q96RJ0) | cAMP, agonist, luciferase | – | – | 0.0813
CC(=O)N[C@@H](CCCNC(=N)N)C(=O)N[C@@H](CCCNC(=N)N)C(=O)N[C@H](Cc1ccc(I)cc1)C(=O)N[C@H](C(N)=O)[C@H](c1ccccc1)c1c[nH]c2ccccc12 | Mc1r | cAMP, agonist, AlphaScreen | – | – | 0.38
CC[C@H](C)[C@H](NC(=O)[C@H](C)NC(=O)[C@H](CCC(=O)O)NC(=O)[C@H](CC(N)=O)NC(=O)[C@@H](N)CO)C(=O)N[C@@H](CO)C(=O)N1CCC[C@H]1C(=O)N[C@@H](Cc1ccccc1)C(=O)N[C@@H](CC(=O)O)C(=O)N[C@@H](CCC(N)=O)C(=O)NCC(=O)N[C@@H](CCSC)C(=O)N[C@@H](CCSC)C(=O)NCC(=O)N[C@@H](Cc1ccc(O)cc1)C(=O)N[C@H](C(=O)N[C@H](C(=O)N[C@@H](CCCCN)C(=O)N[C@H](C(=O)N[C@@H](CC(N)=O)C(=O)N[C@@H](CCCCN)C(=O)N[C@@H](CC(N)=O)C(=O)N[C@H](C(=O)N1CCC[C@H]1C(=O)N[C@@H](CCCNC(=N)N)C(=O)N[C@@H](CCSC)C(N)=O)[C@@H](C)CC)[C@@H](C)O)[C@@H](C)CC)C(C)C | Ecdysis triggering hormone receptor B (Aedes aegypti, UniProt A7J265) | – | – | – | ~0.112
CS(=O)(=O)c1ccc(Cn2cc(C(=O)N[C@H]3CCCC[C@@H]3O)c3c(F)cc(F)cc32)cc1 | CHRM1 (Homo sapiens, UniProt P11229) | calcium mobilization, positive allosteric modulator | CHO | with: acetylcholine EC20 | 3.47
C[C@@H]1NC(=O)[C@H](CC(N)=O)N2C[C@H](Cc3c[nH]c4ccccc34)NC(=O)[C@H](CSCC2=O)NC(=O)[C@H](CCCNC(=N)N)NC(=O)[C@@H](Cc2ccccc2)NC(=O)[C@H](Cc2c[nH]cn2)NC(=O)[C@@H](NC(=O)[C@@H](N)Cc2ccc(O)cc2)CSSC[C@@H](C(=O)N[C@@H](Cc2ccc(O)cc2)C(N)=O)NC(=O)[C@H](Cc2ccccc2)NC1=O | Mc1r | reporter gene, agonist | – | – | 0.0688
CC(=O)N[C@@H](CCCNC(=N)N)C(=O)N[C@@H](CCCNC(=N)N)C(=O)N[C@H](C(=O)N1Cc2ccccc2C[C@H]1C(N)=O)[C@@H](c1ccccc1)c1c[nH]c2ccccc12 | Mc1r | cAMP, agonist, AlphaScreen | – | – | 6.7
CSCC[C@H](NC(=O)[C@H](CC(C)C)NC(=O)CNC(=O)[C@H](Cc1ccccc1)NC(=O)[C@H](Cc1ccccc1)NC(=O)[C@@H]1CCC(=O)N1)C(N)=O | TACR2 (Homo sapiens, UniProt P21452) | β-arrestin recruitment, agonist | – | – | 0.032
CC(=O)N[C@@H](CCCNC(=N)N)C(=O)N[C@H](Cc1ccc(O)cc1)C(=O)N[C@@H](CCCNC(=N)NC(=O)NCCCCN)C(=O)N[C@@H](CC(C)C)C(=O)N[C@@H](CCCNC(=N)N)C(=O)N[C@@H](Cc1ccc(O)cc1)C(N)=O | NPY4R (Homo sapiens, UniProt P50391) | β-arrestin 2 recruitment, agonist | HEK293T | – | 0.71 ± 0.2
Clc1ccc2c(c1)N=C(N1CCNCC1)c1ccccc1N2 | CHRM3 (Homo sapiens, UniProt P20309) | calcium signal, agonist | – | – | 0.49
CC[C@H](C)[C@H](NC(=O)[C@@H](Cc1c[nH]c2ccccc12)NC(=O)[C@@H]1CCCN1C(=O)[C@H](CCCCN)NC(=O)[C@H](CCCCN)NC(=O)CCNC(=O)CCNC(=O)CN1CCN(CC(=O)O)CCN(CC(=O)O)CCN(CC(=O)O)CC1)C(=O)N[C@@H](C[Si](C)(C)C)C(=O)O | NTSR2 (Homo sapiens, UniProt O95665) | calcium mobilization, agonist | HT-29 | – | 0.431
CCCC[C@H](NC(=O)[C@H](CC(C)C)NC(=O)[C@H](Cc1c[nH]cn1)NC(=O)CNC(=O)[C@@H](NC(=O)[C@H](C)NC(=O)[C@H](Cc1c[nH]c2ccccc12)NC(=O)[C@H](CCC(N)=O)NC(=O)[C@H](CC(N)=O)NC(=O)CNC(=O)[C@H](Cc1ccc(O)cc1)NC(=O)[C@H](CCCNC(=N)N)NC(=O)[C@H](CCC(N)=O)NC(=O)[C@@H]1CCC(=O)N1)C(C)C)C(N)=O | GRPR | inositol phosphate, agonist | – | – | 0.00043
C[C@@H]1NC(=O)[C@H](CC(N)=O)NC(=O)[C@H](Cc2c[nH]c3ccccc23)NC(=O)[C@H](CCCNC(=N)N)NC(=O)[C@@H](Cc2ccccc2)NC(=O)[C@H](Cc2c[nH]cn2)NC(=O)[C@@H](NC(=O)[C@@H](N)Cc2ccc(O)cc2)CCCn2nncc2-c2cccc(c2)-c2cnnn2CCC[C@@H](C(=O)N[C@@H](Cc2ccc(O)cc2)C(N)=O)NC(=O)[C@H](Cc2ccccc2)NC1=O | Mc1r | agonist | – | – | 0.57 ± 0.153
C[N+]1([O-])CCN(C2=Nc3cc(Cl)ccc3Nc3ccccc32)CC1 | CHRM3 (Homo sapiens, UniProt P20309, A239G/Y149C) | calcium signal, agonist | – | – | 0.006

A few entries again:
SMILES | target | test | test system | conditions | EC50 [µM]
CS(=O)(=O)c1ccc(Cn2cc(C(=O)N[C@H]3CCCC[C@@H]3O)c3c(F)cc(F)cc32)cc1 | CHRM1 (Homo sapiens, UniProt P11229) | calcium mobilization, positive allosteric modulator | CHO | with: acetylcholine EC20 | 3.47
CC(=O)N[C@@H](CCCNC(=N)N)C(=O)N[C@H](Cc1ccc(O)cc1)C(=O)N[C@@H](CCCNC(=N)NC(=O)NCCCCN)C(=O)N[C@@H](CC(C)C)C(=O)N[C@@H](CCCNC(=N)N)C(=O)N[C@@H](Cc1ccc(O)cc1)C(N)=O | NPY4R (Homo sapiens, UniProt P50391) | β-arrestin 2 recruitment, agonist | HEK293T | – | 0.71 ± 0.2
